Published values gathered from unrelated publications.
Lines come from different studies, so protocols differ. Numbers after ± are the reported error.

CC[C@H](C)[C@H](NC(=O)[C@H](Cc1ccc(O)cc1)NC(=O)[C@@H](NC(=O)[C@H](CCCNC(=N)N)NC(=O)[C@@H](N)CC(=O)O)C(C)C)C(=O)N[C@@H](Cc1c[nH]cn1)C(=O)N1CCC[C@H]1C(=O)O  half-life (Beagle dogs, both sexes, plasma; subcutaneous, 10 mg/kg/day, day 27, median): 0.453 h
CC(C)[C@H]1NC(=O)[C@H](Cc2ccccc2)NC(=O)[C@@H](C(C)C)NC(=O)[C@@H](C)NC(=O)[C@H](CO)NC(=O)[C@@H](Cc2c(-c3ccc(-c4ccc5ccccc5c4)cc3)[nH]c3ccccc23)NC(=O)[C@@H](CO)NC1=O  half-life (female Sprague-Dawley rat, plasma; intraperitoneal, 20 mg/kg, single dose): 0.6 h
Cn1nc(NS(C)(=O)=O)c2c(Cl)ccc(-n3c([C@H](Cc4cc(F)cc(F)c4)NC(=O)Cn4nc(C(F)F)c5c4C(F)(F)[C@@H]4C[C@H]54)nc4nc(OCCC(F)(F)F)ccc4c3=O)c21  half-life (human, plasma; oral, 1875 mg single dose, powder in bottle, geometric mean): 55.9 h
CCCCCCCCCCCCCC(=O)N[C@H](CCN)C(=O)N[C@@H]1C(=O)N[C@@H](CCN)C(=O)N[C@@H](CC(C)C)C(=O)N[C@@H](CCN)C(=O)N[C@H](Cc2ccccc2)C(=O)N[C@@H](CC(C)C)C(=O)N[C@@H](CCN)C(=O)N[C@H](CCN)C(=O)N[C@@H](C(C)C)C(=O)N[C@@H](CC(=O)O)C(=O)O[C@@H]1C  half-life (rat, plasma; intravenous, 5 mg/kg): 8.28 h
C[C@H]1C(=O)O[C@@H]2O[C@@]3(C)CC[C@@H]4[C@@]2(OO3)[C@H]1CC[C@]4(C)O  half-life (human; dose not given, day 2): 1.7 ± 0.5 h
CC(C)N1CCCCC1C(=O)NC(Cc1ccc(-c2ccccc2)cc1)B(O)O (centres unmarked)  half-life (rat, plasma; oral, 1 mg/kg): 3.2 h
CC1(C)C(=O)N(c2ccc(C#N)c(C(F)(F)F)c2)C(=S)N1c1ccc(C(N)=O)c(F)c1  half-life (male human, plasma; oral, 40 mg, single dose, fasted): 221 h
NC1CCN(C(=O)Oc2ccc(C3CCCC4(C3)OOC3(O4)C4CC5CC(C4)CC3C5)cc2)CC1 (racemic)  half-life (male Sprague-Dawley rat, plasma; intravenous, 10 mg/kg): 10.2 h
CCN(CC)CCOc1ccc(-c2nnn(Cc3ccc(OC)cc3)c2N)cc1  half-life (metabolic stability; monkey, plasma): > 6.21 h
CC1(C)C(=O)N(c2ccc(C#N)c(C(F)(F)F)c2)C(=S)N1c1ccc(C(=O)O)c(F)c1  half-life (human, male, plasma; oral, 160 mg, single dose, fasting): 242 ± 66.6 h
CN1CCCCC1C(=O)NC(Cc1ccc(-c2ccccc2)cc1)B(O)O (centres unmarked)  half-life (rat, plasma; intravenous, 1 mg/kg): 5.3 h

A few entries again:
CC1(C)C(=O)N(c2ccc(C#N)c(C(F)(F)F)c2)C(=S)N1c1ccc(C(N)=O)c(F)c1  half-life (male human, plasma; oral, 40 mg, single dose, fasted): 221 h
